Measured values of several laboratories.
Each numbered part is a random draw from the data of one study; scales do not carry over between parts.
Chain of UniProt P61077 (whole entry, looked up): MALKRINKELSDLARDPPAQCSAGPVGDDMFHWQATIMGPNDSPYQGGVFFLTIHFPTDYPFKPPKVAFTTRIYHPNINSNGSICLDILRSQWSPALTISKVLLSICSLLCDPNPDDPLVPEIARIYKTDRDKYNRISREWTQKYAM

Series 1 — technique: protein-binding microarray; form: double-stranded DNA, one strand shown; matrix: in vitro; tested at: not given; reading: higher = stronger binding
Target: Transcriptional repressor CTCF (CTCF, Homo sapiens, UniProt P49711, residues 1-727, full length assumed)
Chain of UniProt P49711 (whole entry, looked up): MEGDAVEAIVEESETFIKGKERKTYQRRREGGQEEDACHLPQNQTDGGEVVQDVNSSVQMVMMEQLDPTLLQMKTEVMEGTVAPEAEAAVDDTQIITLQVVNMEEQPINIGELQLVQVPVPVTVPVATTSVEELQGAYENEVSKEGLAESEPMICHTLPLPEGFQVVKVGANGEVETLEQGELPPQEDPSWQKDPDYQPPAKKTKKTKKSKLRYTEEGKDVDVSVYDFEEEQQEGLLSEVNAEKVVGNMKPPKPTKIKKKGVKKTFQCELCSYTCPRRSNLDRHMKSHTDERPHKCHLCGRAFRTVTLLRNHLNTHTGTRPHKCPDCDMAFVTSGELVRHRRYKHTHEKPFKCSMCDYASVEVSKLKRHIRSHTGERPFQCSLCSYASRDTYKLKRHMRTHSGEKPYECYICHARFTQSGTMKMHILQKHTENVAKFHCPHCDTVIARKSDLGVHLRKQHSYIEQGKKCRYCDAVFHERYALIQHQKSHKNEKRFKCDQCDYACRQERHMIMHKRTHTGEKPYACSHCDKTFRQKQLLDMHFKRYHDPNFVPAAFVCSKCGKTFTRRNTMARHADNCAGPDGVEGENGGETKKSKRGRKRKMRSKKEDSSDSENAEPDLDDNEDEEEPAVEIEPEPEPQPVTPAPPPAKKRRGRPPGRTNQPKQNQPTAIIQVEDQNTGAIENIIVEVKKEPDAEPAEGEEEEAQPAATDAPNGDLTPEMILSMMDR
Notes: k-mer, scored over probes, only values ≥0.25
Sequence	E-score
CGTTGCGC	0.267
ATTTTACC	0.291
AATGATTA	0.258
AATTTCCA	0.318
AATATACT	0.304
AAAAAGCG	0.271
ATATTTCC	0.258
GTTAATTA	0.275

Series 2 — technique: universal PBM; form: double-stranded DNA, one strand shown; matrix: in vitro; tested at: 600 nM; reading: higher = stronger binding
Target: Sal-like protein 4, full length isoform A (SALL4, Homo sapiens, UniProt Q9UJQ4, residues 1-1053)
Chain of UniProt Q9UJQ4 (whole entry, looked up): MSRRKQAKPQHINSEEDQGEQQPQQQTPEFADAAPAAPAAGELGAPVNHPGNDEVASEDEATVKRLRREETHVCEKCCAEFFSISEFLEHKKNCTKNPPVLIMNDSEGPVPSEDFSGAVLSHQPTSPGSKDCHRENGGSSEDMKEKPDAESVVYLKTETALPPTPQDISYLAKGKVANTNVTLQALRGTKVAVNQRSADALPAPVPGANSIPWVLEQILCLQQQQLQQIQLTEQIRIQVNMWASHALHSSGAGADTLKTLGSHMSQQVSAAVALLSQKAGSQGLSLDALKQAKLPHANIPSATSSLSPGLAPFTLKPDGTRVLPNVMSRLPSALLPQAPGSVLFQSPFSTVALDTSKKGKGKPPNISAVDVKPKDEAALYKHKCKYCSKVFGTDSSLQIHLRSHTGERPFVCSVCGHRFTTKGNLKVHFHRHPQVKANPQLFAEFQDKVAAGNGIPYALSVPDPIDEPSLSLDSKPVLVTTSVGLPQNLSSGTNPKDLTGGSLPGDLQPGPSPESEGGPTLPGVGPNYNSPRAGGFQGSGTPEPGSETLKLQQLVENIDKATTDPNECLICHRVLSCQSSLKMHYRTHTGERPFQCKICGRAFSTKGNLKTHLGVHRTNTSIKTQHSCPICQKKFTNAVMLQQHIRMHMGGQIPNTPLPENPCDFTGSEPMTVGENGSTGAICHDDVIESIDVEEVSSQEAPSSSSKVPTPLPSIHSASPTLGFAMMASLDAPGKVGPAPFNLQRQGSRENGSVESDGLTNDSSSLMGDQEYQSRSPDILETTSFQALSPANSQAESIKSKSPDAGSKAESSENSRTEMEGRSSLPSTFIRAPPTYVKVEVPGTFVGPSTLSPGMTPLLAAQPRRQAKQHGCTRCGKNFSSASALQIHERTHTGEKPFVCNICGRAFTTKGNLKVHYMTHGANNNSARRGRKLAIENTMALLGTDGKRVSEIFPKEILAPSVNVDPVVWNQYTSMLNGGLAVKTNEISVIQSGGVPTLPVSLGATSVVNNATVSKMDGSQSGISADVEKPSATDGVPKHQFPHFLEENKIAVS
Notes: 8-mer, flanks averaged, mean of replicates
Sequence	E-score
GAAAGATC	-0.151
ATTCGGAC	0.115
GACTGTAC	-0.0948
CCACATTA	0.2
AGTATTTC	0.191
GCGATCTA	-0.0583
CGAGCCAC	-0.272
AGCCAGGA	-0.182

Series 3 — technique: RNAcompete; form: RNA; matrix: in vitro; tested at: 20 nM; notes: 7-mer, probes averaged, single round; reference: mean of 7-mers; reading: higher = stronger binding
Target: PABPC1L2, full length, GST fusion (mouse, UniProt A0ABA7IW68)
Construct (chain): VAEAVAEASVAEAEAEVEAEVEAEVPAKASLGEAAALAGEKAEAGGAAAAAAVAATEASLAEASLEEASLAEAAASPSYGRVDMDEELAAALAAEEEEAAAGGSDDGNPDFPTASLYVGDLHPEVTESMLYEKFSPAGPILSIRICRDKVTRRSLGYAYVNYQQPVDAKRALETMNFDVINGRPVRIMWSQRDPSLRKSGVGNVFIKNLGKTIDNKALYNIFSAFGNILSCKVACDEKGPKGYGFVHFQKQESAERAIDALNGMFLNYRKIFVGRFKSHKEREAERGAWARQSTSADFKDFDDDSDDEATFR
Sequence	7-mer Z-score
CAACCCC	-0.269
UAGUGUA	-0.117
GGAAGCU	-0.157
CUCACGC	-0.325
CACCCAU	-0.324
AGUGUUC	-0.36
CCCAACU	-0.324
AUGUAGA	-0.0391

Mixed results
Molecule	target	assay	system	conditions	how to read	endpoint	result
VTLSLTLPITCHICLGKVRQPVICINNHVFCSICIDLWLKNNSQCPACRVPITPENPCK (OBI1 RING domain (UniProt Q5W0B1))	UBE2D3 UBC core domain (UniProt P61077)	yeast two-hybrid	yeast	mostly zero background	reference: not given, higher = stronger interaction	lacZ reporter activity	0
